Assay results gathered from unrelated publications.
Protocols differ between the studies behind these lines. Converted amounts (≈) assume the structure as drawn.
Organism: Escherichia coli

SMILES	assay	test system	conditions	how to read	endpoint	result
CC[C@H](C)[C@H](NC(=O)[C@H](CCCNC(=N)N)NC(=O)[C@H](CCCCN)NC(=O)[C@H](CC(C)C)NC(=O)[C@H](CC(C)C)NC(=O)CN)C(=O)N[C@@H](CCCCN)C(=O)N[C@H](C(=O)N[C@@H](CC(C)C)C(=O)N[C@@H](CC(C)C)C(=O)NCCCC[C@H](NC(=O)[C@H](CCCCNC(=O)[C@H](CC(C)C)NC(=O)[C@H](CC(C)C)NC(=O)[C@@H](NC(=O)[C@H](CCCCN)NC(=O)[C@@H](NC(=O)[C@H](CCCNC(=N)N)NC(=O)[C@H](CCCCN)NC(=O)[C@H](CC(C)C)NC(=O)[C@H](CC(C)C)NC(=O)CN)[C@@H](C)CC)[C@@H](C)O)NC(=O)[C@H](CC(C)C)NC(=O)[C@H](CC(C)C)NC(=O)[C@@H](NC(=O)[C@H](CCCCN)NC(=O)[C@@H](NC(=O)[C@H](CCCNC(=N)N)NC(=O)[C@H](CCCCN)NC(=O)[C@H](CC(C)C)NC(=O)[C@H](CC(C)C)NC(=O)CN)[C@@H](C)CC)[C@@H](C)O)C(N)=O)[C@@H](C)O	checkerboard	ATCC 25922	with: gentamicin		FIC index	0.562
CCCCCCCCCCCCCCCCCC(=O)N[C@@H](CCCCN)C(=O)N[C@@H](CCCCN)C(=O)N[C@@H](CCCNC(=N)N)C(=O)N[C@@H](CCCCN)C(=O)N[C@@H](CCCCN)C(N)=O		K12			MBC	64 µg/mL
CC[C@H](C)[C@H](NC(=O)[C@H](CCCCN)NC(=O)[C@H](CCCCN)NC(=O)[C@H](CC(C)C)NC(=O)[C@H](CCCCN)NC(=O)[C@H](CCC(=O)O)NC(=O)[C@H](CCCCN)NC(=O)[C@@H](NC(=O)[C@H](CCCCN)NC(=O)[C@H](CC(N)=O)NC(=O)[C@H](CCCNC(=N)N)NC(=O)[C@H](Cc1ccccc1)NC(=O)[C@H](CCCCN)NC(=O)[C@H](CCCNC(=N)N)NC(=O)[C@H](CC(C)C)NC(=O)[C@H](CCCNC(=N)N)NC(=O)[C@H](CCCCN)NC(=O)[C@H](CCCNC(=N)N)NC(=O)[C@@H](N)CC(C)C)[C@@H](C)CC)C(=O)NCC(=O)N[C@@H](CCC(N)=O)C(=O)N[C@@H](CCCCN)C(=O)N[C@H](C(=O)N[C@@H](CCC(N)=O)C(=O)NCC(=O)N[C@@H](Cc1ccccc1)C(=O)N[C@H](C(=O)N1CCC[C@H]1C(=O)N[C@@H](CCCCN)C(=O)N[C@@H](CC(C)C)C(=O)O)C(C)C)[C@@H](C)CC	inhibition zone	ATCC 25922			lethal concentration	1.63 µM
CC[C@H](C)[C@H](NC(=O)[C@H](CCCCN)NC(=O)[C@H](CCCCN)NC(=O)[C@H](Cc1c[nH]c2ccccc12)NC(=O)[C@H](CC(N)=O)NC(=O)[C@@H](N)C(C)C)C(=O)N[C@@H](CC(C)C)C(=O)NCC(=O)N[C@@H](CCCCN)C(=O)N[C@H](C(=O)N[C@H](C(=O)N[C@@H](CCCCN)C(=O)N[C@H](C(=O)N[C@H](C(=O)N[C@@H](CCCCN)C(N)=O)C(C)C)C(C)C)[C@@H](C)CC)[C@@H](C)CC		ATCC 8937, RPMI medium	24 h, 37 °C		LC99.9	1.9 to 3.7 µM
CC(C)=CCC/C(C)=C/CNCCOC1C2CC3CC(C2)CC1C3 (centres unmarked)	growth				IC50	2.8 µg/mL (≈ 8.45 µM)
CC[C@H](C)[C@H](NC(=O)[C@H](CCCCN)NC(=O)[C@H](CCCCN)NC(=O)[C@H](CC(C)C)NC(=O)[C@H](CCCCN)NC(=O)[C@H](CCC(=O)O)NC(=O)[C@H](CCCCN)NC(=O)[C@@H](NC(=O)[C@H](CCCCN)NC(=O)[C@H](CC(N)=O)NC(=O)[C@H](CCCNC(=N)N)NC(=O)[C@H](Cc1ccccc1)NC(=O)[C@H](CCCCN)NC(=O)[C@H](CCCNC(=N)N)NC(=O)[C@H](CC(C)C)NC(=O)[C@H](CCCNC(=N)N)NC(=O)[C@H](CCCCN)NC(=O)[C@H](CCCNC(=N)N)NC(=O)[C@H](CC(C)C)NC(=O)[C@@H](N)CCCNC(=N)N)[C@@H](C)CC)C(=O)NCC(=O)N[C@@H](CCC(N)=O)C(=O)N[C@@H](CCCCN)C(=O)N[C@H](C(=O)N[C@@H](CCC(N)=O)C(=O)NCC(=O)N[C@@H](Cc1ccccc1)C(=O)N[C@H](C(=O)N1CCC[C@H]1C(=O)N[C@@H](CCCCN)C(=O)N[C@@H](CC(C)C)C(=O)N[C@@H](CCC(N)=O)C(=O)N1CCC[C@H]1C(=O)N[C@@H](CO)C(=O)N[C@@H](CCCCN)C(=O)N[C@@H](CCC(N)=O)C(=O)N[C@@H](CO)C(=O)O)C(C)C)[C@@H](C)CC	inhibition zone	ATCC 25922			lethal concentration	2.75 µM
CC[C@H](C)[C@H](NC(=O)[C@H](CCCNC(=N)N)NC(=O)[C@H](CCCCN)NC(=O)[C@H](CC(C)C)NC(=O)[C@H](CC(C)C)NC(=O)CN)C(=O)N[C@@H](CCCCN)C(=O)N[C@H](C(=O)N[C@@H](CC(C)C)C(=O)N[C@@H](CC(C)C)C(=O)NCCCC[C@H](NC(=O)[C@H](CC(C)C)NC(=O)[C@H](CC(C)C)NC(=O)[C@@H](NC(=O)[C@H](CCCCN)NC(=O)[C@@H](NC(=O)[C@H](CCCNC(=N)N)NC(=O)[C@H](CCCCN)NC(=O)[C@H](CC(C)C)NC(=O)[C@H](CC(C)C)NC(=O)CN)[C@@H](C)CC)[C@@H](C)O)C(N)=O)[C@@H](C)O	checkerboard	ATCC 25922	with: gentamicin		FIC index	0.312
CC[C@H](C)[C@H](NC(=O)[C@H](CO)NC(=O)[C@H](CO)NC(=O)[C@H](Cc1ccccc1)NC(=O)CN)C(=O)N[C@@H](Cc1ccccc1)C(=O)N[C@@H](CCCNC(=N)N)C(N)=O		ATCC 8739	with: 1 mM MgCl2		MBC	> 128 µM
CC[C@H](C)[C@H](NC(=O)[C@H](CCCN)NC(=O)[C@H](CC(N)=O)NC(=O)[C@H](Cc1c[nH]c2ccccc12)NC(=O)[C@H](Cc1ccccc1)NC(=O)[C@H](CCCN)NC(=O)[C@H](CCCCNC(=N)N)NC(=O)[C@H](CC(C)C)NC(=O)[C@H](Cc1c[nH]c2ccccc12)NC(=O)[C@H](CCCN)NC(=O)[C@H](CCCCNC(=N)N)NC(=O)[C@H](CC(C)C)NC(=O)CNC(C)=O)C(=O)N[C@@H](CCCN)C(=O)N[C@@H](CCCCNC(=N)N)C(N)=O	crystal violet staining	ATCC 25922	4 × MIC, 24 h		biofilm formation inhibition	≤ 61.9%
CC[C@H](C)[C@H](NC(=O)[C@@H](CCCNC(=N)N)NC(=O)[C@H](CCCNC(=N)N)NC(=O)[C@@H]1CCCN1C(=O)[C@@H]1CCCN1C(=O)[C@H](CCCNC(=N)N)NC(=O)[C@@H]1CCCN1C(=O)[C@H](CCCNC(=N)N)NC(=O)[C@@H]1CCCN1C(=O)[C@H](CC(C)C)NC(=O)[C@H](Cc1ccc(O)cc1)NC(=O)[C@@H]1CCCN1C(=O)[C@@H]1CCCN1C(=O)[C@H](CCCCN)NC(=O)[C@H](CC(=O)O)NC(=O)[C@@H](N)C(C)C)C(=O)N[C@@H](Cc1ccc(O)cc1)C(=O)N[C@@H](CC(N)=O)C(=O)N[C@H](CCCNC(=N)N)C(=O)N[C@@H](CC(N)=O)C(=O)NCC(=O)N1CCC[C@H]1C(=O)N[C@@H](CCCNC(=N)N)C(=O)N[C@@H](CC1CCCCC1)C(=O)N[C@@H](Cc1ccccc1)C(=O)N[C@@H](CCC(N)=O)C(=O)N[C@@H](CC(C)C)C(=O)N[C@@H](CC(=O)O)C(=O)O	broth microdilution	D22			MBC	2 µg/mL
CC(C)C1=CC2=CCC3C(C)(C(=O)OCCC[N+](C)(C)C)CCCC3(C)C2CC1 (centres unmarked)		ATCC 25922		reference: HC50 over MIC	selectivity index	10
